# Experimental data collected from several papers.
# Parts stem from different laboratories: compare values within a part only.

# Sample 1
# Target: RING finger protein unkempt homolog, zinc fingers 1-6, GST-SBP tag (UNK, Homo sapiens, UniProt Q9C0B0, residues 30-357)
# UniProt Q9C0B0, sequence (30-357, looked up): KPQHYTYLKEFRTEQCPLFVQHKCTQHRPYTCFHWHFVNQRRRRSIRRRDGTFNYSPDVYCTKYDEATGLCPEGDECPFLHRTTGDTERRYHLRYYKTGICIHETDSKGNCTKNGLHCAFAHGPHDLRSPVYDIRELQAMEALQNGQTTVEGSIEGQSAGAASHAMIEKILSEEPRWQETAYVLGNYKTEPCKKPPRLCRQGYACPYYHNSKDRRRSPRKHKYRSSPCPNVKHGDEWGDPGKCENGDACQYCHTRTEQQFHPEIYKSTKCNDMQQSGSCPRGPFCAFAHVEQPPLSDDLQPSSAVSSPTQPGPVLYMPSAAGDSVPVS
# Technique: RNA Bind-n-Seq
# Form: RNA
# Medium: in vitro
# Concentration: not given
# Notes: RNA with constant flanks, human-mouse chimeric sites, ends assumed
# Reference: input RNA pool
# Reading: higher = stronger binding
Strand,bound/input enrichment
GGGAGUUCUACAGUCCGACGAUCUCAACAGACAACAUCAAAUACCAGCCUAAAGGGGGGCAGGUACAAAUUGUUACUAAGAAAAUAGACCUAAGCCAUGUGACAUCCAAAUGUGGCUCUCUAAAGAACAUCCGCCACAGGCCACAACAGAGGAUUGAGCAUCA,0.619 ratio
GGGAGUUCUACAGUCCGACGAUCGUGACUGGUGUUAAGAUUUCCCCUCAGCAAAGAAGUGCAGUAGUCACCAUAAUUCCAUCUGUGGUGAGUGCCAGUCAGAUUGUGGAGCUGGUCCCAGAACUCAGUUUAGAUACUGGGACUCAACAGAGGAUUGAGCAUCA,0.42 ratio
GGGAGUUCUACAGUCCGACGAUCUCUUAACGUCCAUUUAAAACUUAUUUUUAUAGCUAGAUAAAUAUUGUUAGUCUUAGACAAUAGCUCACAUUUUUUGAAAAGCAUGCUCUCCCUGUCCAUUUGUCUUAUAACAUGACCCAGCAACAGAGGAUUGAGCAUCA,105 ratio
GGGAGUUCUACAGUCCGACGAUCGGCCUGGGACCGUCCUGGGCUAGUACAAAUAGCGGCAGUGGAGGCUCGAGAGGAAAGUUUGUUAGUGAGGCAGUGGUUAGAGGCCGUCAUGUACGGUCCUUUACUCGAUAGAUGUGUUCUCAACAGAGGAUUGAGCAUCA,0.672 ratio
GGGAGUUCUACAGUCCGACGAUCCUUCGGAAAAAAAAAUUACAGGAAAAUACAGUGCUUUCCCUCCCAUAGAUCCACGUUCAAGCUCAAAGAGCAAAGGCUUUGCACGGAGCUCAAACAUCUGAUGAAGAAAGAUUUCUGAGACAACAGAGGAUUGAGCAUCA,0.5 ratio
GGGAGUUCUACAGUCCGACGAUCACAGUUAUAUUGUUGAGUUUCAUUUUCUUGUAUGUUUGUAGUGUCUGCUUGCCUGUGACUUCUGGUAAAAUAAAAUAAGCCUUUGAAAAUAUUUUAGCAUGGUAUUUUUCUAAAAAUAAACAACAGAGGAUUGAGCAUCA,1.37 ratio
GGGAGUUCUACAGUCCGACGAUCGCUCCUCUUCCGCACUCAGCCUGGGGACACUGGGCUGGGACCAGAAUCCAGCUUUCUUUUAAUAGUGUCAGUGUAACUGUAUCCCGUGACAUUUCAUUUUUUUUAAAUAGUGUAUUUUUUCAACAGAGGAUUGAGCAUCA,6.73 ratio
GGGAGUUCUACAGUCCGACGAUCGAUCCACAGUGGUCUGAGGAACAGCUGAUUGCUGCAAAAUUCUGUUUUGCUGGCCUUGUUAUAGGGCAGACUGAAGUGGACAUCAUGAGUCAUGCCACACAAGCUAUAUUUGAAAUACUGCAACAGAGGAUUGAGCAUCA,0.275 ratio
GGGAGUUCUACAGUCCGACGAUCGGUGGGGUGGUCAUUGCCGUUUGAGCUCUGCUGAUUCAUGAGUCGCCUUCAAAACUCUCGUGUAGGGUUGACAAUGUAAGGGGUGGGGGGAUCCAGCUUAUUCUUUUAUUUUCAAGUCCACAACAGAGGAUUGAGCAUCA,0.826 ratio
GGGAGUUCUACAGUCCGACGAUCUAAGUUAUUUUGUACAGCUUUGUAAAUUCUUAACAUUUUUAUAUUGCCAUGUUUAUUUUUUUUAGAUAAUUUGGUUCAUUAAGUACAUAGCUAAGGUACAUCUUUCAUUUUUCAGUAAUUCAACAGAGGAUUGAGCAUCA,3.02 ratio
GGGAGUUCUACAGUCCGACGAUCUAAGUCCUGUGCCAGCAAUUUAUCCCAAAAGUUUUAAAUUCUGGACCAAUAGUGUUUGUUUCCUGAUUUUUGUAUUCAAUACUUUGCCUAGUAUGUAACUCACUCUUACUGAUAAUAAAACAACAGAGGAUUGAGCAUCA,1.76 ratio

# Sample 2
# Target: Transcription factor SOX-2, HMG box (SOX2, Homo sapiens, UniProt P48431, residues 19-118)
# UniProt P48431, sequence (19-118, looked up): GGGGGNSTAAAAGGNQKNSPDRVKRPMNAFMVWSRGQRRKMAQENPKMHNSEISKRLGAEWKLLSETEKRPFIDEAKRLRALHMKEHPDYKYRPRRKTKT
# Technique: protein-binding microarray
# Form: double-stranded DNA, one strand shown
# Medium: in vitro
# Concentration: not given
# Notes: k-mer, scored over probes, only values ≥0.25
# Reading: higher = stronger binding
Strand,E-score
ACATAAT,0.364
TAATTGA,0.367
ATCAATG,0.365
ATAAACA,0.308
AACAATT,0.469
ATAGTCC,0.312
AACCATT,0.267
TGTGAAA,0.332
AATTGCA,0.297
ATTATCA,0.325
AATATTG,0.332
GAATACA,0.311

# Sample 3
# Target: Centromere-binding protein 1, full length, N-terminal tag (CBF1, Saccharomyces cerevisiae, UniProt P17106, residues 1-351)
# UniProt P17106, sequence (whole entry, looked up): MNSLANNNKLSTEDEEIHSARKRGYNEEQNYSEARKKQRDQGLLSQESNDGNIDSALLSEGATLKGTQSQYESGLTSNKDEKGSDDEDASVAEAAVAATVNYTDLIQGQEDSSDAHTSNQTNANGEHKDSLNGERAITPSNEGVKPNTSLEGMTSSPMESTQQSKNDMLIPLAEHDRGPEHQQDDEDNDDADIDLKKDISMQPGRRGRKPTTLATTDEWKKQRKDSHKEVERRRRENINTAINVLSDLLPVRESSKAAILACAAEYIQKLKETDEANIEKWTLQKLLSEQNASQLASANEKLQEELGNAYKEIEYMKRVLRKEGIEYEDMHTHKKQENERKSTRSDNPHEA
# Technique: protein-binding microarray
# Form: double-stranded DNA, one strand shown
# Medium: in vitro
# Concentration: 0.8 µM
# Notes: whole 60-bp probe, no competitor
# Reading: higher = stronger binding
Strand,fluorescence intensity
CTATAAGCATATAATCAGATGAAAAAAGGAAAATTCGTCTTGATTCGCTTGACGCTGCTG,515 a.u.
TGTACGAAGCTATAACACGTTTCTATAGTAGTTAGGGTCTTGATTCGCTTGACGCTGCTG,576 a.u.
GAACTTTACCGTTTGCGTGCTGATTTATGATGTTAGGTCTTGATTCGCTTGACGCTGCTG,595 a.u.
CTAATTTCTTTGCCACCCGTGATCCAAAGCCGTTTCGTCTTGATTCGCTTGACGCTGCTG,1070 a.u.
TGTACGAAGCTATGGCATCAGGATATAGTAGTTAGGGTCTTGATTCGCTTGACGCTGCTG,531 a.u.
CTATTTGAGCCAAGCCACGCGACGCTCCATACTTTCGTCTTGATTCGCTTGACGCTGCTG,524 a.u.
GAATATTGTTTCTTATTCGTGATGTTGGGTTCATAGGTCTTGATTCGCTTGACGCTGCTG,524 a.u.
GAAACGAGGAAACACCACCTGCCTCTATCCATATAGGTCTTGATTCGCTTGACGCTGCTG,541 a.u.
CTATCCATACATCATCAGATGAAAAAATCTCGCTTCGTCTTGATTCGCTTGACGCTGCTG,537 a.u.
GAAAAGCCTTTTCTCAACGTGACTGGAGTAACGTAGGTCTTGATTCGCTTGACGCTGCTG,1360 a.u.
CTAATGACGACCTCGCACGAGGCTTATCATTGCTTCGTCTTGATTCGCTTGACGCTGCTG,522 a.u.
GAAGAAAGCTTGCATCATGAAATGAAGGATTTTTAGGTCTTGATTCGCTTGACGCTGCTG,499 a.u.
GAATTCATTGGTCATCACCACTTAAACGATTCGTAGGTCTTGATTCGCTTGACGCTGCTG,600 a.u.
CTAGCATTTCAATGTCACATAATACGAACCATTTTCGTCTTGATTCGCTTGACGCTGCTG,525 a.u.
GAAAGGGCTTTTGAGCAGGTGAATAGAAGGTAGTAGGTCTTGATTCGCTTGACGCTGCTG,546 a.u.
CTAGATTTTGGAAGTTTCACGATATCGATAATGTTCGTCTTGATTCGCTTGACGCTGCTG,553 a.u.
GAAATTTTTTTTCACCTGTTCATTTTTTTTTTTTAGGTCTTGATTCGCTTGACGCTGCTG,640 a.u.
CTACAGATGCCATATCCCGTGCCATATATACTATTCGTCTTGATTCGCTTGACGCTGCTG,950 a.u.
CCTAACTACTATACCCACGTGCGATAGCTTCGTACAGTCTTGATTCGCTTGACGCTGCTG,3620 a.u.
GAACTTATCGCTTTGCACGCGACTCTTTTTTCTTAGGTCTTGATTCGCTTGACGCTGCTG,893 a.u.
CTAGCTGTGTTTCCGGACGTGCTCTTCACTTTCTTCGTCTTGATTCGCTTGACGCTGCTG,513 a.u.
GAATGAACAATTGACCACGCTACAACGGAATTTTAGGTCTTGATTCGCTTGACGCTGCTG,571 a.u.

# Sample 4
# Target: Sal-like protein 4, full length isoform A (SALL4, Homo sapiens, UniProt Q9UJQ4, residues 1-1053)
# UniProt Q9UJQ4, sequence (whole entry, looked up): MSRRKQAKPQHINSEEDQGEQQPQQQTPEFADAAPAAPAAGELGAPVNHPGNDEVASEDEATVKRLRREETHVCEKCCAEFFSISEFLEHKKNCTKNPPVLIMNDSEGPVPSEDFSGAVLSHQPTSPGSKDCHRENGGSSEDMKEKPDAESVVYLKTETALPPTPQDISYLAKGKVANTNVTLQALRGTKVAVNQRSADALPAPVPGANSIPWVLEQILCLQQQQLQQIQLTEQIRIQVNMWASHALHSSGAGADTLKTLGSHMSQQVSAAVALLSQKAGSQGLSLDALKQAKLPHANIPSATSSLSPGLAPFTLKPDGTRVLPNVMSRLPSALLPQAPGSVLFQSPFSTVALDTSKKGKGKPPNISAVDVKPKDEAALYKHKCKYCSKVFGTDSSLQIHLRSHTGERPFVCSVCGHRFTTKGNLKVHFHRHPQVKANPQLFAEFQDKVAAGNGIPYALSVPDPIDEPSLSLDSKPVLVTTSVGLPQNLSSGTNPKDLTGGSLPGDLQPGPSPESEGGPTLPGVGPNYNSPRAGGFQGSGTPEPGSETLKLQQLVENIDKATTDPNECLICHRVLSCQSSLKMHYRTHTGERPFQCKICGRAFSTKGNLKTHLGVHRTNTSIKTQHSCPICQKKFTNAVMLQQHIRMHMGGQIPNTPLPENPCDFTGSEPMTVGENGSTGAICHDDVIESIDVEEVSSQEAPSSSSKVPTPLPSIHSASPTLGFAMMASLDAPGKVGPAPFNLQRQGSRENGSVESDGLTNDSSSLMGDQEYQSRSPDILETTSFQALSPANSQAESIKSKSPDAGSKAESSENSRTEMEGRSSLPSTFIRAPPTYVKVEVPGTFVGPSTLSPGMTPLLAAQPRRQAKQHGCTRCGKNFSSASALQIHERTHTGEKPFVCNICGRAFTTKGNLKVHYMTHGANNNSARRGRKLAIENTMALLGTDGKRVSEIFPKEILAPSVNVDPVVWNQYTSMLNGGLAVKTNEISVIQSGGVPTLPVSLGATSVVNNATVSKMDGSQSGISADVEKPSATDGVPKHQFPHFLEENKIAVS
# Technique: universal PBM
# Form: double-stranded DNA, one strand shown
# Medium: in vitro
# Concentration: 600 nM
# Notes: 8-mer, flanks averaged, mean of replicates
# Reading: higher = stronger binding
Strand,E-score
TGTCGTAA,0.0841
AACGGACC,-0.263
ACTCTCCC,-0.0635
GACCGTCC,-0.327
GAGCGGCA,-0.238
AGACGACT,-0.078
ATGTCGTC,-0.129
CCTCTTTA,0.0548
ACAGGTTA,-0.00235
GCGCGGAA,-0.297
ATGCAAAT,0.209
GAAAAATC,0.147
CCCCGTCG,-0.401
ATCCGTAG,-0.0335
AGTACCCC,-0.275
CTCCGTCC,-0.28
ATCATGAA,0.134
CACCTTAC,0.043
CATCAATC,0.195
CTGTCTCA,0.0964
